Measured values gathered from unrelated publications.
Each line is one published result; not all experiments were run side by side. ± marks the error that the study gave.
Albumin: Albumin (Mus musculus, UniProt P07724)
Sequence of UniProt P07724 (whole entry, looked up): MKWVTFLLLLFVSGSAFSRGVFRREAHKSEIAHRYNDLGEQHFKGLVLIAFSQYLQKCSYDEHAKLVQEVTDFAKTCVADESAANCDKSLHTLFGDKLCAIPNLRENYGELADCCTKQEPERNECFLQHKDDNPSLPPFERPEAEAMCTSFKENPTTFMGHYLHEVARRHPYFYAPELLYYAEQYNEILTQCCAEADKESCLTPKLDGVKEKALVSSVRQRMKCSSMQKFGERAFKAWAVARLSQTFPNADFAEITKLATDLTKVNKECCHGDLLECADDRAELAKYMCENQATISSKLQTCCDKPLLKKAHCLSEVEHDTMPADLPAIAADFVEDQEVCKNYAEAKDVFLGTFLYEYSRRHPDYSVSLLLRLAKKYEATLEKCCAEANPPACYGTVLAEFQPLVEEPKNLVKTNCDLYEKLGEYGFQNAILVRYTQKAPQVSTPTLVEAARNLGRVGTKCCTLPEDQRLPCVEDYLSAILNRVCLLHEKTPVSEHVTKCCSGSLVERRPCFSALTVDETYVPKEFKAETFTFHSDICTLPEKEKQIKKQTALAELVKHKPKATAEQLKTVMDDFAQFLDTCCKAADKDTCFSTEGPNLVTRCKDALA
TDP1: Tyrosyl-DNA phosphodiesterase 1 (TDP1, Homo sapiens, UniProt Q9NUW8)
Sequence of UniProt Q9NUW8 (whole entry, looked up): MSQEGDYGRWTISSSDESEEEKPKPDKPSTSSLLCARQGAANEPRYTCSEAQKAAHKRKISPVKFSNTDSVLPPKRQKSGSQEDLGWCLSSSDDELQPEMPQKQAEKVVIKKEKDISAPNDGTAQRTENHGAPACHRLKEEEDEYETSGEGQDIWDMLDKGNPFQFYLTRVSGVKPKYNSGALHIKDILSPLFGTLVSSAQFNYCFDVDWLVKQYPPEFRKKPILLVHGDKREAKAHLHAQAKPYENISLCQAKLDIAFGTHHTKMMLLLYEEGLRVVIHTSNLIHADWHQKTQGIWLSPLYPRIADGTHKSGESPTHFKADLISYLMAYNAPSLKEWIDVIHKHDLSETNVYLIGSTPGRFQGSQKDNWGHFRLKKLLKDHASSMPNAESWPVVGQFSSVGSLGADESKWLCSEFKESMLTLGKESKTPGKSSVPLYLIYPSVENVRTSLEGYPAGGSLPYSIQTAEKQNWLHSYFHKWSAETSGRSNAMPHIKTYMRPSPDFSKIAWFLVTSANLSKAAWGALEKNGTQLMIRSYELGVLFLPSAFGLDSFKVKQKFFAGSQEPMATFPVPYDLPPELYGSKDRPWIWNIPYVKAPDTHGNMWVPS
CYP2C19: Cytochrome P450 2C19 (CYP2C19, Homo sapiens, UniProt P33261)
Sequence of UniProt P33261 (whole entry, looked up): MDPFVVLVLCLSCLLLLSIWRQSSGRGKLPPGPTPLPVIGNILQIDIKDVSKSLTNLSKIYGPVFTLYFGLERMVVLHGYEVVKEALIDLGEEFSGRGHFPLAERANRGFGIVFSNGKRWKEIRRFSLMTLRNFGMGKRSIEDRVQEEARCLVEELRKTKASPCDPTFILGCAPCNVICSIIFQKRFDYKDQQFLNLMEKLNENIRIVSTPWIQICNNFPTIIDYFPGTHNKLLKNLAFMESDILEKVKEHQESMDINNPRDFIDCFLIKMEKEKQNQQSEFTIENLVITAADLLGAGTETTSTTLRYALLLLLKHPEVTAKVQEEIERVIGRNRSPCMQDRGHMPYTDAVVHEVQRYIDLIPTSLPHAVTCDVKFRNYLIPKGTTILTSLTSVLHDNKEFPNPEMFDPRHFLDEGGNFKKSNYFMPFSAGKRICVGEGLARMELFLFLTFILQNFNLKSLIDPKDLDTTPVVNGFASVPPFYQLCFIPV
CYP2C9: Cytochrome P450 2C9 (CYP2C9, Homo sapiens, UniProt P11712)
Sequence of UniProt P11712 (whole entry, looked up): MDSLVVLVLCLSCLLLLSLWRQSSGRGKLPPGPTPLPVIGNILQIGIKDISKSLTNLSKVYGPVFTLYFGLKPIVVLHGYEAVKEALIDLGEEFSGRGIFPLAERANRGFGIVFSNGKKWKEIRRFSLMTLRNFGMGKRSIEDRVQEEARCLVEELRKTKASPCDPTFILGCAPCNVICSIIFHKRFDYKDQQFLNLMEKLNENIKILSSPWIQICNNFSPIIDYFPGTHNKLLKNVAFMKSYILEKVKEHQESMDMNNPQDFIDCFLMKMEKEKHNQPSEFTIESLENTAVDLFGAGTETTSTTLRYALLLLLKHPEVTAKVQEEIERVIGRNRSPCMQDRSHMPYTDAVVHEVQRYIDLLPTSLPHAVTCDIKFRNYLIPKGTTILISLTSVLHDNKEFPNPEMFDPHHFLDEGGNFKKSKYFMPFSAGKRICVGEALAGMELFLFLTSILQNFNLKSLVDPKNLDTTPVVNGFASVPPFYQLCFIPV
Sequence of UniProt P10635 (whole entry, looked up): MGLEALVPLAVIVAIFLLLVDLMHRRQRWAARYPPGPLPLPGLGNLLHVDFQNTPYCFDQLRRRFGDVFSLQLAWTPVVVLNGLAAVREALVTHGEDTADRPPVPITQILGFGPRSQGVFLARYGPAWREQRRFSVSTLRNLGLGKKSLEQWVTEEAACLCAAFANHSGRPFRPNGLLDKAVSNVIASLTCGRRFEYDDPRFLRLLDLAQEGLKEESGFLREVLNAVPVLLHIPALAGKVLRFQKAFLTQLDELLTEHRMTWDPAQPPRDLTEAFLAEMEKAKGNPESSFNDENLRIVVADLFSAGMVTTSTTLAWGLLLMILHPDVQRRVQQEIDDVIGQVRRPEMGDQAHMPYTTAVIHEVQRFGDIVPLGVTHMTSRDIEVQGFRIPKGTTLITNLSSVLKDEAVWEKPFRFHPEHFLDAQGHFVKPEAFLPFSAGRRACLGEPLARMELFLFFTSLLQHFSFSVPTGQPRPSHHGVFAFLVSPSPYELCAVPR
Sequence of UniProt P22310 (whole entry, looked up): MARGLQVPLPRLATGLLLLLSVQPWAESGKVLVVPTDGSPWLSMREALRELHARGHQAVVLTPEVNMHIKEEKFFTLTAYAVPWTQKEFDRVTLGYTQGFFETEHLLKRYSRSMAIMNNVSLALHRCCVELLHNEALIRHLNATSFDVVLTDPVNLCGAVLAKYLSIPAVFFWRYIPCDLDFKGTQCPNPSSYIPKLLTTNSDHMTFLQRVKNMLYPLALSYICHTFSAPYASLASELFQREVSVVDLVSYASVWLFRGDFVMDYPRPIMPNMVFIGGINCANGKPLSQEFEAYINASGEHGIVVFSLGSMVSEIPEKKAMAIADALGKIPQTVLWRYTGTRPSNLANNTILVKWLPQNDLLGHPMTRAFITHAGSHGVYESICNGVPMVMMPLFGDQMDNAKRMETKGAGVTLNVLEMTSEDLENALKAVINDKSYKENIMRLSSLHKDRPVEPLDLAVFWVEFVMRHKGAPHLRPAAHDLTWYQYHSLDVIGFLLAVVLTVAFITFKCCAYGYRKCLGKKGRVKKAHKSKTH

SMILES	target	assay	test system	setting	quantity	result
CN1CCN(c2ccc3[nH]c(-c4ccc5[nH]c(-c6ccc(OCCCCNC(=O)c7cccc8c7C(=O)OC87c8ccc(N(C)C)cc8C(C)(C)c8cc(N(C)C)ccc87)cc6)nc5c4)nc3c2)CC1	Albumin	–	PBS	1 µM, 1 h, with: 25 mg/mL albumin	fluorescence quantum yield	0.02 ± 0.003
COc1cccc2cc(C=NOCc3ccc(-c4nc5cc(-c6ccccc6)ccn5c4Nc4ccc(C(=O)O)cc4)cc3)oc12	TDP1	enzyme activity, inhibitor	–	100 µM, unpurified compound	inhibition	64.5%
COC1C(c2ccc(Cl)c(Cc3ccc(OC4CCOC4)cc3)c2)OC(CO)C(O)C1O (stereo not drawn)	CYP2C19	enzyme activity, inhibitor	human, liver microsomes	10 µM, 10 min	inhibition	34.5%
O=C(CN1CN(c2ccccc2)C2(CCN(C(=O)c3cc4cn[nH]c4cn3)CC2)C1=O)NCC(F)(F)F	CYP2C9	enzyme activity, inhibitor	–	–	IC50	2000 nM
C=CC(=O)Nc1cc(Nc2nccc(-c3cn(C)c4ccccc34)n2)c(OCC(F)(F)F)nc1N(C)CCNC	CYP2C9	substrate	–	3 µM, 60 min, 2C9 isoform, liver abundance-normalized	contribution to metabolite formation	12.9%
CN1CCN(c2ccc3[nH]c(-c4ccc5[nH]c(-c6ccc(OCCCCNC(=O)c7ccc8c(c7)C(=O)OC87c8ccc(N(C)C)cc8[Si](C)(C)c8cc(N(C)C)ccc87)cc6)nc5c4)nc3c2)CC1	Albumin	–	PBS	1 µM, 1 h, with: 25 mg/mL albumin	fluorescence quantum yield	0.014 ± 0.005
O=C(O)c1ccc(Nc2c(-c3ccc(CON=Cc4cc(-c5ccccc5)no4)cc3)nc3cc(-c4ccccc4)ccn23)cc1	TDP1	enzyme activity, inhibitor	–	100 µM	inhibition	94.5%
CN(C)c1ccc2c(c1)[Si](C)(C)c1cc(N(C)C)ccc1C21OC(=O)c2c(C(=O)O)cccc21	Albumin	binding, fluorescence titration	PBS	–	Kd	160 ± 120 nM
O=C(NS(=O)(=O)c1cccs1)c1cc2ccccc2n1Cc1ccc(Br)c2ccccc12	CYP2C19	enzyme activity, inhibitor	human liver microsomes	–	IC50	2030 nM
CN1CCN(c2ccc3[nH]c(-c4ccc5[nH]c(-c6ccc(OCCCCNC(=O)c7cccc8c7C(=O)OC87c8ccc(N(C)C)cc8[Si](C)(C)c8cc(N(C)C)ccc87)cc6)nc5c4)nc3c2)CC1	Albumin	–	PBS	1 µM, 1 h, with: 25 mg/mL albumin	fluorescence quantum yield	0.001 ± 0.004
CCCCN1C(=O)c2cccc3c(N4CCN(C)CC4)ccc(c23)C1=O	UGT1A4 (Homo sapiens, UniProt P22310)	N-glucuronidation, substrate, relative activity factor	human, recombinant UGT, liver microsomes	–	contribution to metabolism	98.7%
C=C(NC(=O)c1csc(-c2nc3c(cc2O)-c2nc(cs2)C(=O)NC(C(C)O)C(=O)NC(=C(C)OC)c2nc(cs2)C(=O)NC2c4nc(cs4)C(=O)NC(COC(=O)c4c5c6c(cccc6n4O)COC(=O)C(OC4CC(C)(O)C(N(C)C)C(C)O4)C2OC5)c2nc-3cs2)n1)C(N)=O (stereo not drawn)	CYP2C19	enzyme activity, inhibitor, substrate cocktail	pooled human liver microsomes	up to 50 µM, pH 7.4	remaining activity	> 70%
CN(CC(F)(F)F)C(=O)CN1CN(c2ccccc2)C2(CCN(C(=O)c3ccc4[nH]ncc4c3)CC2)C1=O	CYP2C9	enzyme activity, inhibitor	–	–	IC50	2600 nM
CNC(=O)C1CCCN(C(=O)C2CC3CCC2N3C(=O)[C@@H]2C[C@@H](O)CN2C(=O)NCc2cccc(Cl)c2F)C1 (mixture of isomers)	Cytochrome P450 2D6 (CYP2D6, Homo sapiens, UniProt P10635)	enzyme activity, inhibitor, time-dependent inhibition	–	0.0686 µM, preincubated with NADPH	dextrorphan formation	111 ng/mL
C=CC(=O)Nc1cc(Nc2nccc(-c3cn(C)c4ccccc34)n2)c(OCC(F)(F)F)nc1N(C)CCN(C)C	CYP2C19	substrate	–	3 µM, 60 min, 2C19 isoform, liver abundance-normalized	contribution to substrate depletion	0.668%

Excerpt of the above:
SMILES	target	assay	test system	setting	quantity	result
CN(C)c1ccc2c(c1)[Si](C)(C)c1cc(N(C)C)ccc1C21OC(=O)c2c(C(=O)O)cccc21	Albumin	binding, fluorescence titration	PBS	–	Kd	160 ± 120 nM
O=C(NS(=O)(=O)c1cccs1)c1cc2ccccc2n1Cc1ccc(Br)c2ccccc12	CYP2C19	enzyme activity, inhibitor	human liver microsomes	–	IC50	2030 nM
